Values quoted from earlier work as cited in several papers.
In brackets after ≈: the same amount, converted by molar mass.

Structure (SMILES) | target or system | test | conditions | how to read | measurement | result
COc1ccc(CC(=O)Nc2cc(-c3ccccc3)nc3ncnn23)cc1 | HepG2 | – | – | – | CC50 | > 100 µM
CC(=O)OC12COC1CC(O)C1(C)C(=O)C(OC(=O)C3CC3)C3=C(C)C(OC(=O)C(O)C(C=C(C)C)NC(=O)OC(C)(C)C)CC(O)(C(OC(=O)c4cccc(OC(F)(F)F)c4)C21)C3(C)C (stereo not drawn) | MCF7 | cytotoxicity | – | – | IC50 | 0.00056 µM
Cc1ccc(Cn2cc(C(=O)NCCOCCO)c(=O)c3cc(C(=O)/C=C/c4ccc([N+](=O)[O-])o4)ccc32)cc1 | Vero | – | – | – | CC50 | 3.4 µM
CC(=O)OC1C(=O)C2(C)C(O)CC3OCC3(OC(C)=O)C2C(OC(=O)c2cccc(OC(F)F)c2)C2(O)CC(OC(=O)C(O)C(C=C(C)C)NC(=O)OC(C)(C)C)C(C)=C1C2(C)C (stereo not drawn) | MCF7 | cytotoxicity | – | – | IC50 | 0.00034 µM
CCCCCCCCCCCCNC=C1N=C(c2ccc[nH]2)C=C1OC.Cl | HepG2 | cytotoxicity | – | – | IC50 | 2.4 µg/mL
CC[C@H](C)[C@H](NC(=O)CNC(=O)[C@H](CCCCN)NC(=O)[C@H](CCCCN)NC(=O)[C@H](CCC(N)=O)NC(=O)[C@H](CC(C)C)NC(=O)[C@H](CCCCN)NC(=O)[C@H](CC(C)C)NC(=O)[C@H](CC(C)C)NC(=O)[C@H](CCCCN)NC(=O)[C@H](CCCCN)NC(=O)[C@H](CC(C)C)NC(=O)[C@H](CC(C)C)NC(=O)[C@H](CCCCN)NC(=O)[C@H](CCSC)NC(=O)[C@H](C)NC(=O)[C@H](CCCCN)NC(=O)[C@@H]1CCCN1C(=O)[C@H](C)N)C(=O)O | human keratinocytes | – | – | up to | highest non-toxic concentration | ≤ 200 µM
CCC(=C(c1ccc(O)cc1)c1ccc(O)cc1)[c-]1cccc1.[Fe+2].c1cc[cH-]c1 | NCI60 human tumour cell panel | cell killing | mean-graph midpoint | – | CC50 | 22.9 µM
Cc1ccc(CCNc2cc(-c3ccccc3)nc3ncnn23)cc1 | HepG2 | – | – | – | CC50 | 53 µM
CC[C@H](C)[C@H](NC(=O)[C@@H](NC(=O)[C@H](C)NC(=O)[C@@H](NC(=O)[C@H](C)NC(=O)[C@@H]1CCCN1C(=O)CNC(=O)[C@H](C)NC(=O)[C@H](CC(N)=O)NC(=O)[C@H](CCCCN)NC(=O)[C@@H](NC(=O)[C@H](C)NC(=O)[C@H](CC(N)=O)NC(=O)[C@H](CCCNC(=N)N)NC(=O)[C@@H](NC(=O)[C@H](CCCNC(=N)N)NC(=O)[C@H](CCCNC(=N)N)NC(=O)[C@@H](NC(=O)[C@@H](NC(=O)[C@H](CCCCN)NC(=O)[C@H](CCC(=O)O)NC(=O)[C@H](CC(C)C)NC(=O)[C@H](CCCCN)NC(=O)[C@H](CCCCN)NC(=O)[C@H](CC(C)C)NC(=O)[C@@H]1CCCN1C(=O)[C@H](CCCCN)NC(=O)[C@H](Cc1c[nH]c2ccccc12)NC(=O)[C@@H](N)CCCNC(=N)N)C(C)C)C(C)C)C(C)C)C(C)C)C(C)C)C(C)C)C(=O)NCC(=O)N[C@@H](CC(=O)O)C(=O)O | Staphylococcus aureus | – | – | – | MIC | 16 µM (≈ 55.5 µg/mL)
CN(C)c1ncnc2c1ncn2[C@@H]1O[C@H](CO)[C@@H](NC(=O)[C@H](N)CSC(c2ccccc2)c2ccccc2)[C@H]1O | Vero | MTT | – | – | CC50 | 46 µM
CC[C@H](C)[C@H](NC(=O)CNC(=O)[C@H](CCC(N)=O)NC(=O)[C@@H](NC(=O)[C@H](C)NC(=O)[C@H](CCC(N)=O)NC(=O)[C@H](C)NC(=O)[C@@H](NC(=O)[C@H](C)NC(=O)[C@H](CCCNC(=N)N)NC(=O)[C@H](Cc1ccccc1)NC(=O)[C@H](C)NC(=O)[C@H](CC(N)=O)NC(=O)[C@H](CCCCN)NC(=O)CNC(=O)[C@H](C)NC(=O)[C@H](CCCCN)NC(=O)[C@H](CCC(=O)O)NC(=O)[C@@H](NC(=O)[C@H](CCCCN)NC(=O)[C@H](CCCCN)NC(=O)CN)[C@@H](C)CC)C(C)C)C(C)C)C(=O)NCC(=O)N[C@@H](Cc1ccccc1)C(=O)N[C@@H](C)C(=O)N[C@@H](CCCNC(=N)N)C(=O)N[C@@H](C)C(=O)N[C@@H](CC(C)C)C(=O)NCC(=O)N[C@H](C(=O)N[C@@H](C)C(=O)N[C@H](C(=O)N[C@@H](CC(=O)O)C(=O)O)C(C)C)[C@@H](C)CC | Staphylococcus aureus | – | – | – | MIC | 32 µM (≈ 107 µg/mL)
CC(=O)OC12COC1CC(O)C1(C)C(=O)C(OC(=O)N(C)C)C3=C(C)C(OC(=O)C(O)C(C=C(C)C)NC(=O)OC(C)(C)C)CC(O)(C(OC(=O)c4cccc(OC(F)(F)F)c4)C21)C3(C)C (stereo not drawn) | MCF7 | cytotoxicity | – | – | IC50 | 0.00028 µM

Excerpt of the above:
Structure (SMILES) | target or system | test | conditions | how to read | measurement | result
CC(=O)OC12COC1CC(O)C1(C)C(=O)C(OC(=O)N(C)C)C3=C(C)C(OC(=O)C(O)C(C=C(C)C)NC(=O)OC(C)(C)C)CC(O)(C(OC(=O)c4cccc(OC(F)(F)F)c4)C21)C3(C)C (stereo not drawn) | MCF7 | cytotoxicity | – | – | IC50 | 0.00028 µM
